Measured values of several laboratories.
Each line is one published result; not all experiments were run side by side. ± marks the error that the study gave.

By UniProt entry, the sequences of proteins in these tests, tags left out.
UniProt Q07912, whole entry: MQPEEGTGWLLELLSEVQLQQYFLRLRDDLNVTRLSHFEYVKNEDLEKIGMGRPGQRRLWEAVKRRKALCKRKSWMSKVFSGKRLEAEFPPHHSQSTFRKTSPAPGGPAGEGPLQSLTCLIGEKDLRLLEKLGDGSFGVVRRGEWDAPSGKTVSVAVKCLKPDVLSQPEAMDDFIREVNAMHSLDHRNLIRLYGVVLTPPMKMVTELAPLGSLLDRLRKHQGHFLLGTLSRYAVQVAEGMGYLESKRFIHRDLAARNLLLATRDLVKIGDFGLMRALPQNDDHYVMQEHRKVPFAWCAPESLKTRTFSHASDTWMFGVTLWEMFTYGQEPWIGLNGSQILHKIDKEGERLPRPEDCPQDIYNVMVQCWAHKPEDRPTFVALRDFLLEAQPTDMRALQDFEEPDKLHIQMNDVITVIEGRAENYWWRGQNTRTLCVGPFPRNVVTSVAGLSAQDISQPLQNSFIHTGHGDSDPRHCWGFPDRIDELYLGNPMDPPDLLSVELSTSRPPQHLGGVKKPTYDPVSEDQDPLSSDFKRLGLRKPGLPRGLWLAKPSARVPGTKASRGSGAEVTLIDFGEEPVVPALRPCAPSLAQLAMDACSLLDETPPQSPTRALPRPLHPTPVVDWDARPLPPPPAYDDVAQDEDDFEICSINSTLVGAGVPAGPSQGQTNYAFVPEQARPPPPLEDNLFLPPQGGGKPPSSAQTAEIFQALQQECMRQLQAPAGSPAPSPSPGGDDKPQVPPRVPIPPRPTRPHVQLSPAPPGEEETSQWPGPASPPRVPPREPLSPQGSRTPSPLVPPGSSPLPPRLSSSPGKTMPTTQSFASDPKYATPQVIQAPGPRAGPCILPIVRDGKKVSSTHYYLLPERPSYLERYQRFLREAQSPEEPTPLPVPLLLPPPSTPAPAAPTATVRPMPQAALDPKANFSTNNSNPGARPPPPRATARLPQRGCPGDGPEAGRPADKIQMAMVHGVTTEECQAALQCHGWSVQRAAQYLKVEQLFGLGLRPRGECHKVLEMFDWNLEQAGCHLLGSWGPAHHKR

| SMILES | target or system | assay | test system | setting | scale | measurement | value |
| --- | --- | --- | --- | --- | --- | --- | --- |
| O=C(C1CC1)N1CC2CC(C1)N2 | dopamine release | [3H]dopamine release, agonist | rat, striatal synaptosomes |  |  | EC50 | 140 nM |
| CC#C/C(=N\OC[C@H]1COCCN1)c1ccc2ncnc(Nc3ccc(OCc4cccc(F)c4)c(Cl)c3)c2c1 | Activated CDC42 kinase 1 (TNK2, Homo sapiens, UniProt Q07912) | kinase activity |  | 10 µM |  | inhibition | 30.6% |
| CCN(CC)C(=O)Oc1ccc(C(=O)Nc2cccc3cc[nH]c23)cc1 | muscle nicotinic acetylcholine receptor α1β1γδ | modulator, two-electrode voltage clamp | Xenopus oocytes | 20 µM, with: 1 µM acetylcholine | reference: agonist alone | current response | 100 ± 3.3% |
| CC1=C(c2ccc(F)cc2)S(=O)(=O)N=C1N1CCC(N2CCCCC2)CC1 | AAC(3)-IV Escherichia coli | acetyltransferase activity, inhibitor |  | concentration not given |  | inhibition | no inhibition |
| Cc1ccc(S(=O)(=O)N(C)CC(=O)N(Cc2ccc(C3CCCCC3)cc2)c2ccc(C(=O)O)c(O)c2)cc1 | STAT3 | EMSA | NIH3T3/v-Src, PANC-1, MDA-MB-231 | 50 µM, 24 h |  | Stat3 DNA-binding activity | inhibited |
| CC(=O)OCOc1ccc2nc3ccc(=O)cc-3oc2c1 | Mycobacterium tuberculosis |  | mc2 6206 PA-824-resistant ddn mutant | 7 days |  | MIC90 | 44 µM |
| CCCN1CCN(c2ccc3c(c2)C2CC3CCN2C(=O)OCc2ccccc2)CC1 (stereo not drawn) | peripheral benzodiazepine receptor | radioligand binding |  |  |  | Ki | > 10000 nM |
| CC(C)Cc1nnc2c(C(=O)NC3c4ccccc4-c4ccccc43)cccn12 | RNA polymerase Δω, Escherichia coli | enzyme activity |  |  | reference: mutant over wild type | IC50 ratio | 6 |
| O=c1ccc2nc3ccc(OCc4ccc([N+](=O)[O-])s4)cc3oc-2c1 | Mycobacterium tuberculosis |  | mc2 6206 PA-824-resistant ddn mutant | 7 days |  | MIC90 | > 256 µM |
| C#Cc1ccc2c(c1)C(c1ccccc1F)=N[C@H](C)c1c(-c3nc(C(C)C)no3)ncn1-2 | GABA-A receptor benzodiazepine site, rat | radioligand binding | brain homogenate | concentration not given, primary screen, with: [3H]flunitrazepam |  | inhibition | > 50% |
| O=C(N/N=C/c1cc([N+](=O)[O-])ccc1O)c1ccc(O)cc1O | PHGDH human | de novo serine synthesis, inhibitor, LC-HRMS isotope tracing, item: serine and glycine | SK-OV-3 GFP knockout control | 37 µM, 24 h, with: U-13C-glucose | reference: untreated | reduction of 13C incorporation | > 50% |
| CCN1CCN(Cc2ccc(NC(=O)c3ccc(C)c(/C=C/c4cnc5[nH]ccc5c4OC)c3)cc2C(F)(F)F)CC1 | ETV6-PDGFRB fusion | kinase-CDC37 interaction, cell-based kinome screen |  | 5 µM | reference: vehicle | log2 fold change | -0.51 |
